# Experimental data collected from several papers.
# Every numbered part comes from another study and shows a few of its results, in no order.

# Series 1
# Target: Histone acetyltransferase KAT6A, both winged helices, GST fusion (KAT6A, Homo sapiens, UniProt Q92794, residues 1-181)
# Method: protein binding microarray
# Molecule type: double-stranded DNA, one strand shown
# Medium: in vitro
# Tested at: not given
# Notes: 8-mer, flanks averaged, mean of 2 arrays, mostly near background
# Relative to: not given
# Direction: higher = stronger binding
# Target sequence (chain): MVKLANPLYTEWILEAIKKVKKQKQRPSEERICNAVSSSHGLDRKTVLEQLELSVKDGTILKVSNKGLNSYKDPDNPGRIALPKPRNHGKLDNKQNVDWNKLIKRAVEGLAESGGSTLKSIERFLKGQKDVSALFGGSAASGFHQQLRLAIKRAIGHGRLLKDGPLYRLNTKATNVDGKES
Strand,E-score
TGCCAAAA,-0.0857
GAATTCCC,-0.0474
GACGGATC,0.171
GCTCGCTA,0.029
TAACATCA,-0.151

# Series 2
# Target: Prothrombin, mature alpha-thrombin (F2, Homo sapiens, UniProt P00734)
# Method: aptamer microarray, sandwich
# Molecule type: DNA with 2'F-ANA
# Medium: in vitro
# Tested at: 200 nM
# Notes: whole 15-mer aptamer, many near background
# Together with: Cy3 exosite-II aptamer, 400 nM
# Direction: higher = stronger binding
Strand,mean fluorescence intensity [a.u.]
GGTTGGTGTGGTTGG (2'F-ANA at 2 4 6 8 10 11 12 13 15),80.9
GGTTGGTGTGGTTGG (2'F-ANA at 4 5 7 8 9 12 15),170
GGTTGGTGTGGTTGG (2'F-ANA at 1 2 3 5 8 11 13 15),60.2
GGTTGGTGTGGTTGG (2'F-ANA at 3 5 6 7 9 11 12 13 14 15),73.1

# Series 3
# Target: Ras GTPase-activating protein-binding protein 1, full length (G3BP1, Homo sapiens, UniProt Q13283)
# Chain of UniProt Q13283 (whole entry, looked up): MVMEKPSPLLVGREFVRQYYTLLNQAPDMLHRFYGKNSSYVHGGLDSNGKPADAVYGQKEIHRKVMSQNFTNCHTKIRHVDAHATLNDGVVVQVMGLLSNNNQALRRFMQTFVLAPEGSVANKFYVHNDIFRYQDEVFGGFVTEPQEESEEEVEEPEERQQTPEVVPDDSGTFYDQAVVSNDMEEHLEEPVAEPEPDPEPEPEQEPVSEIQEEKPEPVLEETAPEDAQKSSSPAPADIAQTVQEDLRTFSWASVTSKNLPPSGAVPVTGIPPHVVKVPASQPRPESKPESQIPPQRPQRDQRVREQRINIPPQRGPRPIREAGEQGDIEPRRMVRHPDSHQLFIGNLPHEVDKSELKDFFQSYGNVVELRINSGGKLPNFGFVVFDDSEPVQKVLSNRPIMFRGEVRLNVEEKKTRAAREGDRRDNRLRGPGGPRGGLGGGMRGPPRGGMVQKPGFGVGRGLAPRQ
# Method: RNA Bind-n-Seq
# Molecule type: RNA
# Medium: in vitro
# Tested at: 200 nM
# Notes: whole 134-nt RNA, ends assumed
# Together with: 150 mM KCl
# Relative to: input library
# Direction: higher = stronger binding
# Constant ends, left off below: GGGAGUUCUACAGUCCGACGAUC … UGGAAUUCUCGGGUGUCAAGG
Strand,log2 enrichment
AGUCCUGUGCUACACAUCGUAUGUACCGAAUCGGGAAAAAGGGGAAAAAGGAAAAAGGAAAGUAUUAUGUUACGCCGUUCGGAUCUGCAC,-0.634
GCAGGAAGUAAAAACAAAUGGAAACGCUUCGGAUAGUGGCAGGGGUGGGGGUUGCUAAGGAAAGGGUGGGAUGGGAGUGGGUAAAGAGUU,0.982
CUGUGCUACACAUCGUAUGUACCGAAUCGGGGCCCCCCCGGCCCCCCCGGCCCCCCCGGGGAAAGUAUUAUGUUACGCCGUUCGGAUCUG,-0.53
CUCAAGUCCUGUGCUACACAUCGUAUGUACCGAAUCGGAAAAAGGAAAGGAGGAAAGUAUUAUGUUACGCCGUUCGGAUCUGCACUUCCA,-0.6
AGCAUGCAGGUGGGCAUCUUUGGGAAGUGGGGCAAGGGGGGGAUAGGGAGGGGGGUAACACUUUGGGAACAGGUGGUCCCAGGUCGUUUC,1.38

# Other studies, line by line
Substance,target,assay,test system,setting,scale,endpoint,value
"PhoQ, residues 284 288 289 292 302 303 HSYLQF","PhoP, residues 12 14 15 18 19 SQCLL (Escherichia coli, UniProt P23836)","Sort-seq, refers to: YFP reporter",E. coli,"PhoQ-PhoP variant library, together with: 10 µM Mg2+","relative to: high Mg2+ state, higher = stronger signaling",fold induction,30.5
